{"data": "Measured values from different studies", "note": "Compare with care: the assays were run in different laboratories. ± marks the error that the study gave.", "chain of UniProt Q9Y2K6 (whole entry, looked up)": "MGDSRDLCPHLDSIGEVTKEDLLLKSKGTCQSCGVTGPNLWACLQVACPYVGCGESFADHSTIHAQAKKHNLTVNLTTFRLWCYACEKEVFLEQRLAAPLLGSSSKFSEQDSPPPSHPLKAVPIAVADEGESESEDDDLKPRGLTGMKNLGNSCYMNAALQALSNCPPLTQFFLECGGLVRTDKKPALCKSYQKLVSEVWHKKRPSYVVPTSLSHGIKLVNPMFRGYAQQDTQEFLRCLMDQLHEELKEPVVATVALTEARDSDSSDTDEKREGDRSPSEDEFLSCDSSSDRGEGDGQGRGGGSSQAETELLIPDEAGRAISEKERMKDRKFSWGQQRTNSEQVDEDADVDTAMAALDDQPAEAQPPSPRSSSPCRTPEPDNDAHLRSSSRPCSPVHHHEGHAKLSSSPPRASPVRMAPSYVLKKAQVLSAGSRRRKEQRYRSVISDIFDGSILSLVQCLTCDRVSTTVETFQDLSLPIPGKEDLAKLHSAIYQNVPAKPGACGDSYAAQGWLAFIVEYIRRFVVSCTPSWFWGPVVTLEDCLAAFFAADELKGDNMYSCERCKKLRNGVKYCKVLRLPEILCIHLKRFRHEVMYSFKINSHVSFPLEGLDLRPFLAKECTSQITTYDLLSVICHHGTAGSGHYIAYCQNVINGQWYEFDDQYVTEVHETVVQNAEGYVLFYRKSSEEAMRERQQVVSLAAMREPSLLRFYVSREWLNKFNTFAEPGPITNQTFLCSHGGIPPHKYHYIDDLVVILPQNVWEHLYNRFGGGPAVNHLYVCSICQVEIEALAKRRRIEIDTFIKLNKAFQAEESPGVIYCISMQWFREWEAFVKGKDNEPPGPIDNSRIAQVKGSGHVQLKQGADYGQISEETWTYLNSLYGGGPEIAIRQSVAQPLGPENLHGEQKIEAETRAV", "chain of UniProt Q70CQ1 (whole entry, looked up)": "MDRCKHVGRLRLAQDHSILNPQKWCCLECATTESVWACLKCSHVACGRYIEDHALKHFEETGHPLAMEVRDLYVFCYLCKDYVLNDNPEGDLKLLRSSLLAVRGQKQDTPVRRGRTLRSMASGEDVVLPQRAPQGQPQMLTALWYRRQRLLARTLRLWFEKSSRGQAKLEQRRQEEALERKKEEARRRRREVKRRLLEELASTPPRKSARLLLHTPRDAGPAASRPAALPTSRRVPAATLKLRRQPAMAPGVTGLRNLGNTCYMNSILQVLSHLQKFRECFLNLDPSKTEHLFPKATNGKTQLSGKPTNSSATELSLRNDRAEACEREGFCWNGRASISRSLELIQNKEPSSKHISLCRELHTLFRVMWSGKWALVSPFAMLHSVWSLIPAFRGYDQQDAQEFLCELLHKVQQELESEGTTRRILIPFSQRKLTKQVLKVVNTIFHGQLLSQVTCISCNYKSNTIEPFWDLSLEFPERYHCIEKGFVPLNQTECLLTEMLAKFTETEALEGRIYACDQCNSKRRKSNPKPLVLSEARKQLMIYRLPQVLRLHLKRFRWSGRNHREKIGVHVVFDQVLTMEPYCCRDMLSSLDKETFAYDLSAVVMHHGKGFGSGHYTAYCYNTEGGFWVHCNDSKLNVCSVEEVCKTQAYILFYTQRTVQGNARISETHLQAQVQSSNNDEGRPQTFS"}
{"Compound": "CC(C)(C)c1cc(NC(=O)Nc2ccc(-c3cn4c(n3)sc3cc(OCCN5CCOCC5)ccc34)cc2)no1", "target or system": "iCell Cardiomyocytes (hiPSC-derived)", "assay": "xCELLigence Cardio impedance", "setting": "concentration not given, 2 h", "how to read": "baseline: control", "endpoint": "beat amplitude", "value": "103%"}
{"Compound": "Cn1cnc2c(F)c(Nc3ccc(Br)cc3Cl)c(C(=O)NOCCO)cc21", "target or system": "NLRP3 inflammasome (mouse)", "test system": "mouse BMDM", "setting": "10 µM", "endpoint": "inhibition", "value": "-14.1%"}
{"Compound": "Oc1ccccc1-c1n[nH]cc1-c1ccnc2ccccc12", "target or system": "TOR1 (Candida albicans)", "assay": "kinase binding, MIB/MS competition", "test system": "Candida albicans lysate", "setting": "10 µM", "how to read": "baseline: DMSO", "endpoint": "log2 fold change", "value": 0.01}
{"Compound": "O=C(Nc1cnn2ccc(N3CCC[C@@H]3c3cc(F)ccc3F)nc12)N1CC[C@H](O)C1", "target or system": "NLRP3 inflammasome (mouse)", "test system": "mouse BMDM", "setting": "10 µM", "endpoint": "inhibition", "value": "4.75%"}
{"Compound": "O=C(NOCC1CC1)c1ccc(F)c(F)c1Nc1ccc(I)cc1Cl", "target or system": "iCell Cardiomyocytes (hiPSC-derived)", "assay": "xCELLigence Cardio impedance", "setting": "concentration not given, 2 h", "how to read": "baseline: control", "endpoint": "beat rate", "value": "103%"}
{"Compound": "CC(C)C[C@H](NC(=O)C[C@H](O)[C@H](CC(C)C)NC(=O)[C@H](Cc1c[nH]cn1)NC(=O)CNC(=O)[C@@H](NC(=O)[C@H](C)NC(=O)[C@H](Cc1c[nH]c2ccccc12)NC(=O)[C@H](CCC(N)=O)NC(=O)[C@@H](Cc1ccccc1)NC(=O)COCCOCCNC(=O)CCC(C(=O)O)N1CCN(CC(=O)O)CCN(CC(=O)O)CC1)C(C)C)C(N)=O (some centres unmarked) [lutetium-177 labelled]", "test system": "female BALB/c nu/nu mice, intestines", "setting": "intravenous, 50 pmol, 24 h", "endpoint": "tissue uptake", "value": "0.03 ± 0.02 %ID/g"}
{"Compound": "O=C(O)c1ccc(Nc2ncc3c(n2)-c2ccc(Cl)cc2C(c2c(F)cccc2F)=NC3)cc1", "target or system": "iCell Cardiomyocytes (hiPSC-derived)", "assay": "CellTiter-Glo", "setting": "concentration not given, 24 h", "how to read": "baseline: control", "endpoint": "ATP level", "value": "87%"}
{"Compound": "O=C[C@H](O)[C@H]1OC(=O)[C@@H](O)[C@H]1O", "assay": "binding, equilibrium dialysis LC-MS", "setting": "5 µM, thermostabilized A2AR-BRIL construct", "how to read": "baseline: no-protein control, direction not given", "endpoint": "z-scored log2 fold change", "value": 0.238}
{"Compound": "CC1(C)CCCCN1CC(=O)Nc1nnc(S(N)(=O)=O)s1", "target or system": "Alpha-carbonic anhydrase (Enterococcus faecium, UniProt Q3XYE8)", "assay": "CO2 hydration, inhibitor, stopped-flow kinetics", "endpoint": "Ki", "value": "0.0145 µM"}
{"Compound": "OC[C@@H](O)[C@@H](O)[C@H](O)[C@@H](O)CO", "assay": "binding, equilibrium dialysis LC-MS", "setting": "5 µM, thermostabilized A2AR-BRIL construct", "how to read": "baseline: no-protein control, direction not given", "endpoint": "z-scored log2 fold change", "value": 0.0815}
{"Compound": "COc1cc(OC)c(/C=C/S(=O)(=O)Cc2ccc(OC)c(NCC(=O)O)c2)c(OC)c1", "target or system": "NLRP3 inflammasome (mouse)", "test system": "mouse BMDM", "setting": "10 µM", "endpoint": "inhibition", "value": "20.8%"}
{"Compound": "O=C1OC(C(O)CO)C(=O)C1=O (centres unmarked)", "assay": "binding, equilibrium dialysis LC-MS", "setting": "5 µM, thermostabilized A2AR-BRIL construct", "how to read": "baseline: no-protein control, direction not given", "endpoint": "z-scored log2 fold change", "value": 0.0422}
{"Compound": "CNC(=O)c1cc(Oc2ccc(NC(=O)Nc3ccc(Cl)c(C(F)(F)F)c3)cc2)ccn1", "target or system": "NLRP3 inflammasome (mouse)", "test system": "mouse BMDM", "setting": "10 µM", "endpoint": "inhibition", "value": "22.2%"}
{"Compound": "O=C(O)Cc1nc2ccccc2[nH]1", "target or system": "Ubiquitin carboxyl-terminal hydrolase 20, ZnF-UBD domain (USP20, Homo sapiens, UniProt Q9Y2K6)", "endpoint": "Kd", "value": "> 1000 µM"}
{"Compound": "Cc1ncc(CO)c(CN)c1O", "assay": "binding, equilibrium dialysis LC-MS", "setting": "5 µM, thermostabilized A2AR-BRIL construct", "how to read": "baseline: no-protein control, direction not given", "endpoint": "z-scored log2 fold change", "value": 0.246}
{"Compound": "C[C@@H](Oc1cc(-n2cnc3ccc(CN4CCN(C)CC4)cc32)sc1C(N)=O)c1ccccc1C(F)(F)F", "target or system": "iCell Cardiomyocytes (hiPSC-derived)", "assay": "cellular impedance", "setting": "concentration not given, 24 h", "how to read": "baseline: control", "endpoint": "cell index", "value": "97.7%"}
{"Compound": "Nc1nc(=O)c2nc(CNc3ccc(C(=O)N[C@@H](CCC(=O)O)C(=O)O)cc3)cnc2[nH]1", "assay": "binding, equilibrium dialysis LC-MS", "setting": "5 µM, thermostabilized A2AR-BRIL construct", "how to read": "baseline: no-protein control, direction not given", "endpoint": "z-scored log2 fold change", "value": 0.0936}
{"Compound": "Cc1cc(NC(=O)CCC(=O)O)nn1C", "target or system": "Ubiquitin carboxyl-terminal hydrolase 49, ZnF-UBD domain (USP49, Homo sapiens, UniProt Q70CQ1)", "endpoint": "Kd", "value": "> 1000 µM"}
{"Compound": "Cc1cn(-c2cc(NC(=O)c3ccc(C)c(Nc4nccc(-c5cccnc5)n4)c3)cc(C(F)(F)F)c2)cn1", "target or system": "iCell Cardiomyocytes (hiPSC-derived)", "assay": "xCELLigence Cardio impedance", "setting": "concentration not given, 2 h", "how to read": "baseline: control", "endpoint": "beat rate", "value": "98.1%"}
{"Compound": "N=C(N)NCCCC(=O)O", "assay": "binding, equilibrium dialysis LC-MS", "setting": "5 µM, thermostabilized A2AR-BRIL construct", "how to read": "baseline: no-protein control, direction not given", "endpoint": "z-scored log2 fold change", "value": 0.148}
{"Compound": "Cn1cc(-c2ccc(-c3cncc(Cl)c3N3CCC4(CCNC4=O)CC3)cc2)cn1", "target or system": "COLO 205", "assay": "gene expression, microarray, measured: HIST1H4C mRNA", "setting": "concentration not given, 6 h", "how to read": "baseline: untreated cells", "endpoint": "log2 fold change", "value": -2.32}
{"Compound": "CO[C@@H]1[C@H](N(C)C(=O)c2ccccc2)C[C@H]2O[C@]1(C)n1c3ccccc3c3c4c(c5c6ccccc6n2c5c31)C(=O)NC4", "target or system": "iCell Cardiomyocytes (hiPSC-derived)", "assay": "xCELLigence Cardio impedance", "setting": "concentration not given, 2 h", "how to read": "baseline: control", "endpoint": "beat amplitude", "value": "77.2%"}
{"Compound": "Cc1ncc(CO)c(CO)c1O", "assay": "binding, equilibrium dialysis LC-MS", "setting": "5 µM, thermostabilized A2AR-BRIL construct", "how to read": "baseline: no-protein control, direction not given", "endpoint": "z-scored log2 fold change", "value": 0.0769}
{"Compound": "Cc1cc(C)c(/C=C2\\C(=O)Nc3ccccc32)[nH]1", "target or system": "NLRP3 inflammasome (mouse)", "test system": "mouse BMDM", "setting": "10 µM", "endpoint": "inhibition", "value": "67%"}
{"Compound": "Nc1ccn([C@@H]2O[C@H](CO)[C@@H](O)[C@H]2O)c(=O)n1", "assay": "binding, equilibrium dialysis LC-MS", "setting": "5 µM, thermostabilized A2AR-BRIL construct", "how to read": "baseline: no-protein control, direction not given", "endpoint": "z-scored log2 fold change", "value": 0.0962}
{"Compound": "C1=N/C2=N/c3ccc(OCCN4CCCC4)c(c3)COC/C=C/COCc3cccc(c3)C(=C1)N2", "target or system": "NLRP3 inflammasome (mouse)", "test system": "mouse BMDM", "setting": "10 µM", "endpoint": "inhibition", "value": "-62.9%"}
{"Compound": "CCn1c(-c2nonc2N)nc2c(C#CC(C)(C)O)ncc(OC[C@H]3CCCNC3)c21", "target or system": "iCell Cardiomyocytes (hiPSC-derived)", "assay": "xCELLigence Cardio impedance", "setting": "concentration not given, 2 h", "how to read": "baseline: control", "endpoint": "beat amplitude", "value": "121%"}
{"Compound": "OC(CCN1CCCCC1)(c1ccccc1)C1CC2C=CC1C2 (centres unmarked)", "assay": "resting-state EEG", "test system": "healthy elderly humans", "setting": "oral, 4 mg, eyes open, LS mean", "endpoint": "EEG Beta2-power Fz-Cz", "value": "0.8 µV²"}
{"Compound": "C=CC(=O)Nc1cc(Nc2nccc(-n3cc(CN(C)C)c(-c4ccccc4)n3)n2)c(OC)cc1N1CCOCC1", "target or system": "NLRP3 inflammasome (mouse)", "test system": "mouse BMDM", "setting": "10 µM", "endpoint": "inhibition", "value": "-27%"}
{"Compound": "COc1cc(Nc2c(C#N)cnc3cc(OCCCN4CCN(C)CC4)c(OC)cc23)c(Cl)cc1Cl", "target or system": "iCell Cardiomyocytes (hiPSC-derived)", "assay": "xCELLigence Cardio impedance", "setting": "concentration not given, 2 h", "how to read": "baseline: control", "endpoint": "beat rate", "value": "66.5%"}
{"Compound": "CCN(CC)CCNC(=O)c1c(C)[nH]c(/C=C2\\C(=O)Nc3ccc(F)cc32)c1C", "target or system": "NLRP3 inflammasome (mouse)", "test system": "mouse BMDM", "setting": "10 µM", "endpoint": "inhibition", "value": "-8.48%"}
{"Compound": "c1coc(-c2n[nH]cc2-c2ccnc3ccccc23)c1", "target or system": "TOR1 (Candida albicans)", "assay": "kinase binding, MIB/MS competition", "test system": "Candida albicans lysate", "setting": "10 µM", "how to read": "baseline: DMSO", "endpoint": "log2 fold change", "value": -0.17}
{"note": "Excerpt of the above:"}
{"Compound": "COc1cc(Nc2c(C#N)cnc3cc(OCCCN4CCN(C)CC4)c(OC)cc23)c(Cl)cc1Cl", "target or system": "iCell Cardiomyocytes (hiPSC-derived)", "assay": "xCELLigence Cardio impedance", "setting": "concentration not given, 2 h", "how to read": "baseline: control", "endpoint": "beat rate", "value": "66.5%"}
{"Compound": "O=C(Nc1cnn2ccc(N3CCC[C@@H]3c3cc(F)ccc3F)nc12)N1CC[C@H](O)C1", "target or system": "NLRP3 inflammasome (mouse)", "test system": "mouse BMDM", "setting": "10 µM", "endpoint": "inhibition", "value": "4.75%"}
{"Compound": "Oc1ccccc1-c1n[nH]cc1-c1ccnc2ccccc12", "target or system": "TOR1 (Candida albicans)", "assay": "kinase binding, MIB/MS competition", "test system": "Candida albicans lysate", "setting": "10 µM", "how to read": "baseline: DMSO", "endpoint": "log2 fold change", "value": 0.01}
{"Compound": "C=CC(=O)Nc1cc(Nc2nccc(-n3cc(CN(C)C)c(-c4ccccc4)n3)n2)c(OC)cc1N1CCOCC1", "target or system": "NLRP3 inflammasome (mouse)", "test system": "mouse BMDM", "setting": "10 µM", "endpoint": "inhibition", "value": "-27%"}
